Measured values of several laboratories.
Protocols differ between the studies behind these lines. ± marks the error that the study gave.

Compound	test system	conditions	tissue uptake
O=C([O-])CN1CCN(CC(=O)O)CCN(CC(=O)[O-])CCN(CC(=O)NCC2CCC(C(=O)NC(Cc3ccc4ccccc4c3)C(=O)NCCCCC(NC(=O)NC(CCC(=O)O)C(=O)O)C(=O)O)CC2)CC1.[212Pb+2] (stereo not drawn)	athymic mice, C4-2 prostate cancer xenograft, salivary gland	intravenous, 2 h, 212Pb-labelled	not detected
O=C(NCC1OC2CCC=CCCC2O1)c1ccc(COCCOCCOCC[18F])cc1 (stereo not drawn)	healthy female BALB/c nude mice, large intestine	intravenous, 7.4 MBq per mouse, 15 min	5.6 ± 0.3 %ID/g
CCCC[C@H](NC(=O)CNC(=O)CNC(=O)[C@H](CCCCNC(=O)[C@H](CCN)NC(=O)C(C)c1ccc(CC(C)C)cc1)NC(=O)CN1CCN(CC(=O)O)CCN(CC(=O)O)CCN(CC(=O)O)CC1)C(=O)N[C@H]1CC(=O)NCCCC[C@@H](C(N)=O)NC(=O)[C@H](Cc2c[nH]c3ccccc23)NC(=O)[C@H](CCCNC(=N)N)NC(=O)[C@@H](Cc2ccccc2)NC(=O)[C@H](Cc2c[nH]cn2)NC1=O (stereo partly drawn) [lutetium-177 labelled]	C57 mice, tumour-bearing, brain	2 h	0.03 ± 0.02 %ID/g
COc1ccc(Nc2nc(Nc3ccc(OCCOCC[18F])cc3)ncc2Br)cc1	ICR mice, S180 tumour-bearing, muscle	intravenous, 370 kBq, 120 min	2.47 ± 0.18 %ID/g
N#C[C@@H]1CCCN1C(=O)CNC(=O)c1ccnc2ccc(OCCCN3CCN(C(=O)CCc4ccc(O)c(CN5CCN6CC(=O)[O][Al-]([18F])([O]C(=O)C5)[O]c5ccc(CCC(=O)N7CCN(CCCOc8ccc9nccc(C(=O)NCC(=O)N%10CCC[C@H]%10C#N)c9c8)CC7)cc5C6)c4)CC3)cc12 (stereo partly drawn)	BALB/c nude mice, U-87 MG xenograft, intestine	1 h, blocking, added: DOTA-FAPI-04 40 nmol/mouse co-injected	5.52 ± 0.83 %ID/g
COc1ccc(Nc2nc(Nc3ccc(OCCOCCOCC[18F])cc3)ncc2Br)cc1	ICR mice, S180 tumour-bearing, lung	intravenous, 370 kBq, 60 min	4.09 ± 0.63 %ID/g
CCCC[C@H](NC(=O)CNC(=O)CNC(=O)[C@H](CCCCNC(=O)[C@H](CC(=O)O)NC(=O)C(C)c1ccc(CC(C)C)cc1)NC(=O)CN1CCN(CC(=O)O)CCN(CC(=O)O)CCN(CC(=O)O)CC1)C(=O)N[C@H]1CC(=O)NCCCC[C@@H](C(N)=O)NC(=O)[C@H](Cc2c[nH]c3ccccc23)NC(=O)[C@H](CCCNC(=N)N)NC(=O)[C@@H](Cc2ccccc2)NC(=O)[C@H](Cc2c[nH]cn2)NC1=O (stereo partly drawn) [lutetium-177 labelled]	C57 mice, tumour-bearing, spleen	intravenous, 0.037 MBq, 0.5 h	1.7 ± 0.34 %ID/g
CCCC[C@H](NC(=O)COCCOCCNC(=O)CN1CCN(CC(=O)O)CCN(CC(=O)O)CC1)C(=O)N[C@H]1CC(=O)NCCCC[C@@H](C(N)=O)NC(=O)[C@H](Cc2c[nH]c3ccccc23)NC(=O)[C@H](CCCNC(=N)N)NC(=O)[C@@H](Cc2ccccc2)NC(=O)[C@H](Cc2c[nH]cn2)NC1=O [fluorine-18 labelled]	C57 mice, B16/F10 melanoma, bone	intravenous, 1 h, added: NDP-MSH 10 µg	3.74 ± 1.1 %ID/g
O=C(NCC1OC2CCC=CCCC2O1)c1ccc([18F])nc1 (stereo not drawn)	healthy female BALB/c nude mice, skin	intravenous, 7.4 MBq per mouse, 10 min	2.1 ± 1.4 %ID/g
CCCC[C@H](NC(=O)CCCCCCCNC(=O)CN1CCN(CC(=O)O)CCN(CC(=O)O)CC1)C(=O)N[C@H]1CC(=O)NCCCC[C@@H](C(N)=O)NC(=O)[C@H](Cc2c[nH]c3ccccc23)NC(=O)[C@H](CCCNC(=N)N)NC(=O)[C@@H](Cc2ccccc2)NC(=O)[C@H](Cc2c[nH]cn2)NC1=O [fluorine-18 labelled]	C57 mice, B16/F10 melanoma, pancreas	intravenous, 1 h, added: NDP-MSH 10 µg	0.11 ± 0.03 %ID/g
N#C[C@@H]1CCCN1C(=O)CNC(=O)c1ccnc2ccc(OCCCN3CCN(C(=O)CCc4ccc5c(c4)CN4CCN(Cc6cc(CCC(=O)O)ccc6O)CC(=O)[O][Al-]([18F])([O]C(=O)C4)[O]5)CC3)cc12 (stereo partly drawn)	BALB/c nude mice, U-87 MG tumour, gallbladder	60 min post-injection	25.4 ± 11.3 %ID/g
Cc1cc(C)n(CCN(CCN)CCCCCCNC(=O)[C@@H](N)Cc2c[nH]cn2)n1.[99Tc+].[C-]#[O+].[C-]#[O+].[C-]#[O+]	BALB/c nude mice, A549 xenograft, intestine	intravenous, 4 h	18.2 ± 3.35 %IA/g

Some of these lines once more:
Compound	test system	conditions	tissue uptake
COc1ccc(Nc2nc(Nc3ccc(OCCOCC[18F])cc3)ncc2Br)cc1	ICR mice, S180 tumour-bearing, muscle	intravenous, 370 kBq, 120 min	2.47 ± 0.18 %ID/g
N#C[C@@H]1CCCN1C(=O)CNC(=O)c1ccnc2ccc(OCCCN3CCN(C(=O)CCc4ccc(O)c(CN5CCN6CC(=O)[O][Al-]([18F])([O]C(=O)C5)[O]c5ccc(CCC(=O)N7CCN(CCCOc8ccc9nccc(C(=O)NCC(=O)N%10CCC[C@H]%10C#N)c9c8)CC7)cc5C6)c4)CC3)cc12 (stereo partly drawn)	BALB/c nude mice, U-87 MG xenograft, intestine	1 h, blocking, added: DOTA-FAPI-04 40 nmol/mouse co-injected	5.52 ± 0.83 %ID/g
